Published values pooled from the literature.
“And” joins repeats or separate records; there may be more than shown.
CDK1: Cyclin-dependent kinase 1 (CDK1, Homo sapiens, UniProt P06493)
Sequence of UniProt P06493 (whole entry, looked up): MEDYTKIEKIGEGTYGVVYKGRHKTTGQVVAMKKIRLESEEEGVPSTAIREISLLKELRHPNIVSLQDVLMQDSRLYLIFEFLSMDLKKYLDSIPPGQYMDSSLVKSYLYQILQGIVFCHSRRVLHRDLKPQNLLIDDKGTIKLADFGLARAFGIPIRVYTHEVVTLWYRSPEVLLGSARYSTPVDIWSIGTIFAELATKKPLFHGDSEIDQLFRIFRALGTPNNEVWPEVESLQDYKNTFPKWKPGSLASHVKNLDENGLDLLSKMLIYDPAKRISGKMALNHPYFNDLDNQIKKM
CDK1 with cyclin B: Cyclin-dependent kinase 1, with cyclin B (CDK1, Homo sapiens, UniProt P06493)
CDK1 with cyclin B1: Cyclin-dependent kinase 1, with cyclin B1 (CDK1, Homo sapiens, UniProt P06493)

SMILES	target	test	system	setting	scale	endpoint	result
Cc1nn(C)c(C)c1/C=C/C(=O)N1CCC[C@H](Cc2ccc(Nc3ccccn3)nn2)C1	CDK1	enzyme activity, inhibitor, ADP detection		1 µM		activity vs control	93%
CNC(=O)C[C@H](Cc1ccc(C#N)cc1)NC(=O)c1cc(-c2ccc(CN[C@H](C)c3ccc(C)cc3)o2)ccc1Cl	CDK1 with cyclin B	enzyme activity, inhibitor		1 µM		activity vs control	105%
CN1C[C@@H](c2c[nH]c3cc(Br)ccc23)NC[C@@H]1c1c[nH]c2cc(Br)ccc12	CDK1 with cyclin B1	enzyme activity, inhibitor		10 µM		remaining activity	111%
N[C@H]1CC[C@H](Nc2nccc(-c3cccnc3Oc3ccc(NC(=O)NC4CC4)c4ccccc34)n2)CC1	CDK1 with cyclin B1	kinobead competition pulldown, measured: CCNB1	HEK293/HCT116 lysate mixture	10 µM, 1 h, 4 °C	lower = stronger competition	log2 LFQ intensity	25.9 and 25.8
CCn1cc(C(=O)O)c(=O)c2c(N)c(F)c(NC3CCCCC3)cc21	Cyclin-dependent kinase 1, with cyclin E1 (CDK1, Homo sapiens, UniProt P06493)	kinase activity		0.1 µM, with: ATP at Km		inhibition	11.7%
Nc1ncc(-c2cc(-c3cnn(CC(F)(F)F)c3)ncc2F)nc1C(=O)NC1CNCC(F)C1 (stereo not shown)	CDK1 with cyclin B	enzyme activity		1 µM	baseline: DMSO control	remaining activity	87.4%
C=CC(=O)Nc1cccc(-c2cnc3[nH]cc(C(=O)NC(C)(C)C)c3n2)c1	CDK1	enzyme activity, inhibitor		0.1 µM		inhibition	37%
O=C=[N][Ru-4]123([n]4c5ccc(O)cc5c5c6c(c7cc(F)c[n+]1c7c54)C(=O)NC6=O)[S+]1CC[S+]2CC[S+]3CC1 (stereo not shown)	CDK1 with cyclin B	enzyme activity		100 nM, human enzyme, with: 10 µM ATP	baseline: untreated	remaining activity	120%
CN1CCN(Cc2ccc(-c3ccc(CO[C@H]4CCC[C@@H]4NC(=O)c4cc(-c5cnn(C)c5)cnc4N)cc3)cc2)CC1	CDK1 with cyclin B	enzyme activity, inhibitor		0.1 µM		inhibition	1%
O=c1c(-c2ccc(Cl)c(CN3CCOCC3)c2)coc2cc(O)ccc12	CDK1 with cyclin B	enzyme activity, inhibitor		1 µM		remaining activity	96%
COCC12C(=O)NC3C4(C(OC)CC1O)C1CC5(O)C(OC)C(O)C(OC(C)=O)(C1C5OC(=O)c1ccccc1)C3(O)C(OC)C24 (stereo not shown)	CDK1 with cyclin B1	kinase activity, inhibitor, ProQinase kinase profiling		25 µM	baseline: control	remaining activity	75% and 67%
NC(=O)C[C@H]1CCc2sc3ncnc(O[C@H]4CC[C@H](N5CCOCC5)CC4)c3c21	Cyclin-dependent kinase 1, with cyclin E (CDK1, Homo sapiens, UniProt P06493)	enzyme activity, inhibitor		10 µM		inhibition	11%
CN1CC[C@@H](COc2cnc(C#N)cc2-c2ccn3nc(NC(=O)C4CC4)cc3c2)C1	CDK1 with cyclin B	enzyme activity, inhibitor		1 µM		inhibition	13%
NC(=O)[C@@H](O)C[C@H]1CCc2sc3ncnc(O[C@H]4CC[C@H](N5CCOCC5)CC4)c3c21	Cyclin-dependent kinase 1, with cyclin A (CDK1, Homo sapiens, UniProt P06493)	enzyme activity, inhibitor		10 µM		inhibition	11%
Cc1cccc(O[C@H]2CCC[C@@H](C(C)CNCc3ccncc3)C2)c1 (relative stereo)	CDK1	enzyme activity, inhibitor		1 µM		inhibition	2%
CCc1nnc(Nc2cnc([C@@H]3CCCN(C(=O)CCc4cccnc4)C3)cn2)s1	CDK1	enzyme activity, inhibitor, ADP detection		1 µM		activity vs control	101%
Cc1[nH]nc2c1N=C(c1ccccc1Cl)c1cnc(N3CCOCC3)cc1N2	CDK1	enzyme activity, inhibitor		0.5 µM		inhibition	2%
Cc1cc(C)nc(NS(=O)(=O)c2ccc(NC(=O)CCCOc3ccc(C(C)(C)C)cc3)cc2)n1	CDK1	enzyme activity, inhibitor, ADP detection		10 µM		inhibition	61.5%
COc1ccc(NC(=O)Nc2ccc3c(c2)C(=O)N(C(C)CO)CC(C)C(CN(C)Cc2ccc4c(c2)OCO4)O3)cc1 (stereo not shown)	CDK1 with cyclin B	kinase activity, KinaseProfiler		0.03 µM, species human	baseline: control	remaining activity	100%

Repeated from above:
SMILES	target	test	system	setting	scale	endpoint	result
CN1CC[C@@H](COc2cnc(C#N)cc2-c2ccn3nc(NC(=O)C4CC4)cc3c2)C1	CDK1 with cyclin B	enzyme activity, inhibitor		1 µM		inhibition	13%
